Results collected from several papers.
Each numbered part is a random draw from the data of one study; scales do not carry over between parts.
Sequence of UniProt P10721 (whole entry, looked up): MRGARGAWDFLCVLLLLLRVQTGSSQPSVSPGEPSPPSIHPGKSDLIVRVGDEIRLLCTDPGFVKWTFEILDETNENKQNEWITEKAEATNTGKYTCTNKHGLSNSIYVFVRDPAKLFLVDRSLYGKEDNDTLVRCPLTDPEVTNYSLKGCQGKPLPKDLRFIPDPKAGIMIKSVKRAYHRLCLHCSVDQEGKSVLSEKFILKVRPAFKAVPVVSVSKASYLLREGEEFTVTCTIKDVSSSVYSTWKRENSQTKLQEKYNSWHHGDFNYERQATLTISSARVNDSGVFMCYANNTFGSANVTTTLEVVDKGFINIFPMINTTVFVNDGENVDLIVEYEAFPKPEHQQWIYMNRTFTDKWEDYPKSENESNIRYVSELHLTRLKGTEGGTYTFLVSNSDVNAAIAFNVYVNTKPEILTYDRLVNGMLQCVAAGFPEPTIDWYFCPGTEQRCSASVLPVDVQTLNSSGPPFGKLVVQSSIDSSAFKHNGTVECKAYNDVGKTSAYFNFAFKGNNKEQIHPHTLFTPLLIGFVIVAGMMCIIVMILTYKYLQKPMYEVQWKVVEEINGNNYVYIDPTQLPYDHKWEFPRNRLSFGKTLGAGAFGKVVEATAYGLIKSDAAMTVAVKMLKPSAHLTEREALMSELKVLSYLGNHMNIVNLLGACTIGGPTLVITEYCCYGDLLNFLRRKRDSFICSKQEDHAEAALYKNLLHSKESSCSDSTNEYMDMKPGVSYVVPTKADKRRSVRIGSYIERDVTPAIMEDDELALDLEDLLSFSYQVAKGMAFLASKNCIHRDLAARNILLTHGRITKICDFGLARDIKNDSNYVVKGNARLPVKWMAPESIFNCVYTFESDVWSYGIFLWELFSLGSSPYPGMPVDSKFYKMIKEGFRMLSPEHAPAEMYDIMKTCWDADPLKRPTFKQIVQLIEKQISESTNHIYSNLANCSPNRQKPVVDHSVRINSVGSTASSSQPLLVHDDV
Sequence of UniProt P0C1S8 (whole entry, looked up): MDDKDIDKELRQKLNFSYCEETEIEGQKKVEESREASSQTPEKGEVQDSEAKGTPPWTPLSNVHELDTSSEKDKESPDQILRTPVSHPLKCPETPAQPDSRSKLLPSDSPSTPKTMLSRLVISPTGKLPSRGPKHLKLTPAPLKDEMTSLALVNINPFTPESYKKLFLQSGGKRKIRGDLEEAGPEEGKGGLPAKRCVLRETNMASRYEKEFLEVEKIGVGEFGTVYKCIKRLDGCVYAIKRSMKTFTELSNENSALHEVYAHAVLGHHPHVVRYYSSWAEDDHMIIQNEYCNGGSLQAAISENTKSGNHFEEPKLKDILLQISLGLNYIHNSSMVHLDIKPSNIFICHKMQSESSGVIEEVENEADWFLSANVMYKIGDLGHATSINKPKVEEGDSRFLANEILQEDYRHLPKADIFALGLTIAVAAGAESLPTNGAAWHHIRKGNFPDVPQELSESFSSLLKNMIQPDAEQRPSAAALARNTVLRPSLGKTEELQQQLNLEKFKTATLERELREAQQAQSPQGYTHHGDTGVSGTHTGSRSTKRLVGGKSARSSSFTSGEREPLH
Sequence of UniProt Q9UK32 (whole entry, looked up): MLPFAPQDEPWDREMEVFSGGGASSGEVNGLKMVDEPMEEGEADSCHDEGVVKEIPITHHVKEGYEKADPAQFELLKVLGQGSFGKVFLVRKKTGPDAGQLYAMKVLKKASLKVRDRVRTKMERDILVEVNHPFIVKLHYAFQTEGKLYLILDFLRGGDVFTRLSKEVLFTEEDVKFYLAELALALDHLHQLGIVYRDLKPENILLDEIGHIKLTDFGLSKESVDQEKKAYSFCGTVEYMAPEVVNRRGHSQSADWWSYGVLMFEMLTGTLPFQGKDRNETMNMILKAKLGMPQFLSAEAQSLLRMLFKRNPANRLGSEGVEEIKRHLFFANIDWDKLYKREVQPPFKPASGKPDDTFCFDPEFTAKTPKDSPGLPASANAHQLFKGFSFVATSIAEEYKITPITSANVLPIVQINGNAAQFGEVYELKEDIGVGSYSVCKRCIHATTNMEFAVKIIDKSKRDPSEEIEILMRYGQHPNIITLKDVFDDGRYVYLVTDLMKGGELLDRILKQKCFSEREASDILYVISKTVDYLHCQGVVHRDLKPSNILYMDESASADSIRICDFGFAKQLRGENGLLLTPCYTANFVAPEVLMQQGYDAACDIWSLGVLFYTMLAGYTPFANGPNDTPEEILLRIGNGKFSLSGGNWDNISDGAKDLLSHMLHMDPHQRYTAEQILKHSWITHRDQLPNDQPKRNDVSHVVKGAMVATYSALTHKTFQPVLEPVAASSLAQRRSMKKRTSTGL
Sequence of UniProt Q6XUX3 (whole entry, looked up): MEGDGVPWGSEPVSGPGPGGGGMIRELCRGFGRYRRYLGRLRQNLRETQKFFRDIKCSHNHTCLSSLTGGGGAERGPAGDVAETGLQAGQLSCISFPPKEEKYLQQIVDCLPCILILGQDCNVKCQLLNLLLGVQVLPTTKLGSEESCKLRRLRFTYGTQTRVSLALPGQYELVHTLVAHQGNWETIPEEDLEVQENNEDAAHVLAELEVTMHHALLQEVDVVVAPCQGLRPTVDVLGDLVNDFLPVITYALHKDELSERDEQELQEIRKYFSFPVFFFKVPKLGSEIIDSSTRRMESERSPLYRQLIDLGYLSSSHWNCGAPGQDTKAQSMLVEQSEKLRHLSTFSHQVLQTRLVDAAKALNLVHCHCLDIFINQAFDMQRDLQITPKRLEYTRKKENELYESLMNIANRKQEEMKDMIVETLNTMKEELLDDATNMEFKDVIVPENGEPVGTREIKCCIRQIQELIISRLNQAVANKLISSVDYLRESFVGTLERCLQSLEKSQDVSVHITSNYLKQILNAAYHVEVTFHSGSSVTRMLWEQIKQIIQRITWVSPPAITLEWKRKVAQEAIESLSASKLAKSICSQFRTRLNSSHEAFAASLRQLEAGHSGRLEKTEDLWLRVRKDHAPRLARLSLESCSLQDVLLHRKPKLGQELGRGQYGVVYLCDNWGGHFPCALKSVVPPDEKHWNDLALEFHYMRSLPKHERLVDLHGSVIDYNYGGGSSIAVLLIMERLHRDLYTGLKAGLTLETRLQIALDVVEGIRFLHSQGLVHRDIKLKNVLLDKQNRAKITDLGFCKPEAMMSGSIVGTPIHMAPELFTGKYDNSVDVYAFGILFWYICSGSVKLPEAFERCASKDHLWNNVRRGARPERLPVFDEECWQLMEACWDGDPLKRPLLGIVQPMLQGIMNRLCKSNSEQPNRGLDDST
Sequence of UniProt P53350 (whole entry, looked up): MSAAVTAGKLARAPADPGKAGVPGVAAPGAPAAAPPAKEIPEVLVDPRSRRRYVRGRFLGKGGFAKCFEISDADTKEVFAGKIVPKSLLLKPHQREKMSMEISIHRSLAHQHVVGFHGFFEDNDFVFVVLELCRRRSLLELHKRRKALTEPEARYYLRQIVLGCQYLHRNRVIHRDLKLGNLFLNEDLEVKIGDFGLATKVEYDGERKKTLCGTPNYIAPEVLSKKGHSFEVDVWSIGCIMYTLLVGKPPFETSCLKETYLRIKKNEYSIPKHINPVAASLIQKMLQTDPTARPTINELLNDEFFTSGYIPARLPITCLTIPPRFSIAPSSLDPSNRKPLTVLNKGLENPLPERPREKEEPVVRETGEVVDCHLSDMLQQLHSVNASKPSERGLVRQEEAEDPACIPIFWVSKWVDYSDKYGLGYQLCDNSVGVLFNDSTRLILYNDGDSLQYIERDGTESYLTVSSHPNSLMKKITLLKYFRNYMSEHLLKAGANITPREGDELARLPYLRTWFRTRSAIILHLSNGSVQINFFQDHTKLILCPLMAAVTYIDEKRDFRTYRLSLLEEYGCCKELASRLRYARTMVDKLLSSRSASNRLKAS

Sample 1 — cell line: 451Lu
The IC50 of `OCCN1CCN(CCCN2c3ccccc3Sc3ccc(Cl)cc32)CC1` is reported as 17.9 µM.
The IC50 of `CN(C)CCC=C1c2ccccc2C=Cc2ccccc21` is reported as 66.9 µM.
The IC50 of `CN(C)CCCN1c2ccccc2Sc2ccccc21` is reported as 58.7 µM.
`CNCCC=C1c2ccccc2CCc2ccccc21` has an IC50 of 48 µM.
The IC50 of `c1cc(CN2CCCCC2)cc(OCCCNc2nc3ccccc3s2)c1` is reported as 50.1 µM.
`CN(C)CCCN1c2ccccc2Sc2ccc(C(F)(F)F)cc21` has an IC50 of 37.4 µM.
`COCCCC/C(=N\OCCN)c1ccc(C(F)(F)F)cc1` gave an IC50 of 50.4 µM.
The IC50 of `CN(C)CCCN1c2ccccc2CCc2ccccc21` is reported as 79 µM.

Sample 2 — action: inhibitor; concentration: 1 µM
Structure (SMILES): C=CC(=O)N1CCC[C@@H](n2nc(-c3ccc(Oc4ccccc4)cc3)c3c(N)ncnc32)C1
DSTYK (Homo sapiens, UniProt Q6XUX3); enzyme activity — inhibition: 84%.
PAK1 (Homo sapiens, UniProt Q13153); enzyme activity — inhibition: 2%.
The inhibition was 99% (CDPK1 (Plasmodium falciparum, UniProt P62344); enzyme activity).
It gave 0% for inhibition (PLK1 (Homo sapiens, UniProt P53350); enzyme activity).
The inhibition was 29% (Mast/stem cell growth factor receptor Kit, autoinhibited (KIT, Homo sapiens, UniProt P10721)).
For Ribosomal protein S6 kinase alpha-6, C-terminal kinase domain (RPS6KA6, Homo sapiens, UniProt Q9UK32): inhibition read 22%.
For WEE2 (Homo sapiens, UniProt P0C1S8); enzyme activity: inhibition read 18%.
It gave 4% for inhibition (CAMK2A (Homo sapiens, UniProt Q9UQM7); enzyme activity).

Sample 3 — observed: ligand displacement; technique: radioligand; concentration: 10 µM
Target: 5-hydroxytryptamine receptor 1B (HTR1B, Homo sapiens, UniProt P28222)
Sequence of UniProt P28222 (whole entry, looked up): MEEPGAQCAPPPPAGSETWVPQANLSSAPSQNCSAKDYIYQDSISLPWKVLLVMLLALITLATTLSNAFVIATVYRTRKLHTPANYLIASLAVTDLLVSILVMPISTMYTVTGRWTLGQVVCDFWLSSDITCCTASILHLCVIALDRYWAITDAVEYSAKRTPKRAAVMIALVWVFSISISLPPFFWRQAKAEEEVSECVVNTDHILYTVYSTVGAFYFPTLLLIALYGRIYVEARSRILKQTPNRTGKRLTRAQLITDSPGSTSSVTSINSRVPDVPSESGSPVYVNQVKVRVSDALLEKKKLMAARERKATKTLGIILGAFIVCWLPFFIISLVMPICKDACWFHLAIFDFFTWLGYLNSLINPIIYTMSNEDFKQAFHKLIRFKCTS
For `CNC(=O)c1ccc(Nc2ncc(C(F)(F)F)c(NCc3nccnc3N(C)S(C)(=O)=O)n2)cc1`, the inhibition was 12.5%.
`C[C@@H]1CN(c2cc(-c3n[nH]c4ccc(OC5(C)CC5)cc34)ncn2)C[C@H](C)O1` gave an inhibition of 1.16%.
The inhibition of `CS(=O)(=O)c1cc(C2(NC(=O)c3cncc4c3cnn4-c3ccc(F)cc3)CC2)ccn1` is reported as 13.5%.
The inhibition of `CSc1cccnc1N1CCN(Cc2nc3ccccc3[nH]2)CC1` is reported as 1.5%.
The inhibition of `CN(C)C(=O)Cn1cc(-c2nc([C@@](C)(c3ccc(-c4cnc(N)nc4)cc3)C3CC3)no2)cn1` is reported as -3.77%.
With `CN1CCN(c2cnc3c(C4CCN(C(=O)c5ccc(OC(F)(F)F)cc5N)CC4)ncnc3c2)CC1` the inhibition was 14.9%.
For `Cc1cc(Nc2nccc(C)n2)cc(-c2cnc([C@@]3(O)CC[C@H](C(=O)O)C(C)(C)C3)s2)c1`, the inhibition was 11.6%.
With `CCOc1cc(N2C3COCC2CN(C(=O)[C@H]2C[C@H](O)CN2c2ccc(Cl)cc2)C3)ccc1Cl` the inhibition was -2.86%.
`CC(C)(C)OC(=O)N1CCCC1CNC1CCC(c2cc(F)ccc2F)(S(=O)(=O)c2ccc(Cl)cc2)CC1` (stereo not shown) has an inhibition of 70.4%.
For `CC(C)(O)c1cncc(-c2nc3ccc(F)cc3n2C2CC2)c1`, the inhibition was 16.8%.
For `C[C@@H](c1cccc(C#N)c1)n1cc(Cl)cc(C(N)=O)c1=N`, the inhibition was -2.19%.
The inhibition of `CCC(=NO)C(C)=Cc1ccc(F)c(C)c1` is reported as -1.04%.
`Cc1nc(C2CCN(C(=O)c3ccc(OC(F)(F)F)cc3N)CC2)c2ncc(N3CCN(C)CC3)cc2n1` gave an inhibition of 14.6%.
The inhibition of `C[C@@H](NC(=O)Nc1cc2[nH]ncc2c(CO)n1)c1ccccc1` is reported as 4.23%.
`Cn1nc(C(F)(F)F)cc1-c1cnc(N2CCc3cc(S(=O)(=O)Nc4c(F)cc(Cl)cc4F)cc(N4CCCC4=O)c32)nc1` gave an inhibition of 9.13%.
`COc1cccc(NC(=O)c2nc3scc(CN(C)Cc4ccccc4)c3c(=O)[nH]2)c1` gave an inhibition of -2.26%.
`O=C1CCc2cc(Nc3cc(OC4CCOCC4)c([N+](=O)[O-])cc3Cl)ccc2N1` has an inhibition of 14.3%.
For `C[C@H](c1ccc(F)cc1)N(Cc1cccc(C(=O)O)c1)C(=O)c1cnc2ccccc2c1`, the inhibition was 4.38%.
The inhibition of `CN(c1ccnc(CNc2nc(Nc3ccc4c(c3)CC(=O)N4)ncc2C(F)(F)F)n1)S(C)(=O)=O` is reported as 5.78%.

Sample 4 — observed: enzyme activity; action: inhibitor; concentration: 0.5 µM; relative to: control
Target: NT-3 growth factor receptor (NTRK3, Homo sapiens, UniProt Q16288)
Sequence of UniProt Q16288 (whole entry, looked up): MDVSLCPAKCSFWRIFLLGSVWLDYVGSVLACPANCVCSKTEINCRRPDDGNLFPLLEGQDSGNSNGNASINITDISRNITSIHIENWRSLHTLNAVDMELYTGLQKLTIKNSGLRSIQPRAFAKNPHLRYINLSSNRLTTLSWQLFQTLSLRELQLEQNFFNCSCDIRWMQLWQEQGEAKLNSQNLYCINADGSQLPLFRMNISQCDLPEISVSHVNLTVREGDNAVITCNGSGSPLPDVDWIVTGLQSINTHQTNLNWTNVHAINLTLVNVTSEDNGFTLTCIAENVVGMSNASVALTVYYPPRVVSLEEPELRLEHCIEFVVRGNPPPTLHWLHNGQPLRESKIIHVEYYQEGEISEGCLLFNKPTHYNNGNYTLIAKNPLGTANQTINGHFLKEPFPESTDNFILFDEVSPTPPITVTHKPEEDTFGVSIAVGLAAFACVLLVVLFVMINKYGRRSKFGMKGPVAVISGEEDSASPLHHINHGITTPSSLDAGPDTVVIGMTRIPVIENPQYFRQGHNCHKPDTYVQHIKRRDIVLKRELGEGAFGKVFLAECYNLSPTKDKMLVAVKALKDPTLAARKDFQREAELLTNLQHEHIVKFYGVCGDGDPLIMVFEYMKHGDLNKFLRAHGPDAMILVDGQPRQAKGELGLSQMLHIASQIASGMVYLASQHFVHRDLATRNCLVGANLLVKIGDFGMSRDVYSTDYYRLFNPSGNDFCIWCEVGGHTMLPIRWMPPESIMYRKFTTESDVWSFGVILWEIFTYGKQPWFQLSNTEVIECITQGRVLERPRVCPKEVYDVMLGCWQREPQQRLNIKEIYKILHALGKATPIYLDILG
`CCOC(=O)c1c(C)[nH]c(/C=C2\C(=O)Nc3ccccc32)c1C` gave a remaining activity of 27.9%.
With `C#Cc1cccc(Nc2ncnc3cc(OCCOC)c(OCCOC)cc23)c1` the remaining activity was 96%.
The remaining activity of `CO[C@H]1C[C@@H]2CC[C@@H](C)[C@@](O)(O2)C(=O)C(=O)N2CCCC[C@H]2C(=O)O[C@H]([C@H](C)C[C@@H]2CC[C@@H](O)[C@H](OC)C2)CC(=O)[C@H](C)/C=C(\C)[C@@H](O)[C@@H](OC)C(=O)[C@H](C)C[C@H](C)/C=C/C=C/C=C/1C` is reported as 103%.
The remaining activity of `COc1ccc(CNC(=O)Nc2ncc([N+](=O)[O-])s2)cc1` is reported as 98.7%.
`O=C1NC(=O)C(c2cn(CCCn3ccnc3)c3ccccc23)=C1Nc1ccccc1` gave a remaining activity of 40%.
`N#CC(C#N)=C(N)/C(C#N)=C/c1ccc(O)cc1` has a remaining activity of 95.5%.
For `Nc1[nH]nc2nc3ccccc3nc12`, the remaining activity was 92.1%.
`O=c1c2ccccc2[nH]c(=S)n1CCN1CCC(=C(c2ccc(F)cc2)c2ccc(F)cc2)CC1` gave a remaining activity of 98.9%.
With `Cn1c2ccccc2c2c3c(c4c5ccccc5n(CCC#N)c4c21)CNC3=O` the remaining activity was 0.198%.
`Cn1sc(=O)n(Cc2ccccc2)c1=O` has a remaining activity of 107%.
With `O=C(O)c1ccc2c3c1cccc3c(=O)n1c3ccccc3nc21` the remaining activity was 67.1%.
The remaining activity of `NCCNc1ncc(C(N)=O)c(Nc2cccc(C(F)(F)F)c2)n1` is reported as 59.7%.
With `COc1cc2ncnc(Nc3ccc(Oc4ccccc4)cc3)c2cc1OC` the remaining activity was 99.7%.
`Oc1ccc(-c2nc(-c3ccncc3)c(-c3ccc(F)cc3)[nH]2)cc1` gave a remaining activity of 101%.

A few entries again (sample 4):
`O=c1c2ccccc2[nH]c(=S)n1CCN1CCC(=C(c2ccc(F)cc2)c2ccc(F)cc2)CC1` gave a remaining activity of 98.9%.
With `Cn1c2ccccc2c2c3c(c4c5ccccc5n(CCC#N)c4c21)CNC3=O` the remaining activity was 0.198%.
`Cn1sc(=O)n(Cc2ccccc2)c1=O` has a remaining activity of 107%.
`O=C1NC(=O)C(c2cn(CCCn3ccnc3)c3ccccc23)=C1Nc1ccccc1` gave a remaining activity of 40%.
The remaining activity of `COc1ccc(CNC(=O)Nc2ncc([N+](=O)[O-])s2)cc1` is reported as 98.7%.
With `O=C(O)c1ccc2c3c1cccc3c(=O)n1c3ccccc3nc21` the remaining activity was 67.1%.
